Published values gathered from unrelated publications.
Values joined by “and” are separate records of one study, mostly repeats; a detail may differ. Numbers after ± are the reported error.

Compound | target | test | system | conditions | scale | endpoint | result
CN(C)c1ccc2nc3ccc(=[N+](C)C)cc-3sc2c1 | GABAA receptor, human, γ2-containing | – | HEK293 cells | – | – | maximal inhibition | 74 to 96%
CN(C)CCCn1c(=O)c2cc(Br)c3c(=O)n(CCCN(C)C)c(=O)c4c5[nH]c6ccc([N+](=O)[O-])cc6[nH]c5c(c1=O)c2c34 | human telomeric G-quadruplex | FRET melting | – | 0.25 µM, K+ 100 mM | – | ΔTm | 2 ± 0.1 °C
c1coc(-c2n[nH]cc2-c2ccnc3ccccc23)c1 | PBS2 (Candida albicans) | kinase binding, MIB/MS competition | Candida albicans lysate | 1 µM | relative to: DMSO | log2 fold change | -0.27
O=c1c(O)c(-c2ccc(O)cc2)oc2c(Br)c(O)c(Br)c(O)c12 | bovine serum albumin | methylglyoxal-mediated glycation, fluorescence | – | concentration not given | – | inhibition | 72.2 ± 1.26%
CN(C)CCCn1c(=O)c2ccc3c(=O)n(CCCN(C)C)c(=O)c4c5[nH]c6cc([N+](=O)[O-])ccc6[nH]c5c(c1=O)c2c34 | human telomeric G-quadruplex | FRET melting | – | 0.25 µM, K+ 100 mM | – | ΔTm | 5.3 ± 1.1 °C
CCN(CC)CCOC(=O)c1ccc(NC(=O)c2cc(-c3cccc4ccccc34)nc3ccccc23)cc1 | NAADP receptor | antagonist, fluo-3 fluorescence | Lytechinus pictus, egg homogenate | up to 6 µM, with: NAADP 30 to 50 nM | – | NAADP-mediated Ca2+ release | inactive
CCCCCN | SAR11_0271 Candidatus Pelagibacter sp. | differential scanning fluorimetry | – | concentration not given | higher = stronger binding | ΔTm | 2.33 °C
CN1C(=O)/C(=C/c2ccccc2F)Sc2ccc(C(=O)N3CCN(Cc4ccc5c(c4)OCO5)CC3)cc21 | NAADP receptor | antagonist, fluo-3 fluorescence | Lytechinus pictus, egg homogenate | up to 6 µM, with: NAADP 30 to 50 nM | – | NAADP-mediated Ca2+ release | inactive
CN(C)CCCn1c(=O)c2ccc3c(=O)n(CCCN(C)C)c(=O)c4c5[nH]c6ccccc6[nH]c5c(c1=O)c2c34 | human telomeric G-quadruplex | FRET melting | – | 0.25 µM, K+ 100 mM | – | ΔTm | 6 ± 0.1 °C
CCN1C(=O)c2ccccc2[C@H]1Nc1ccc(C(=O)N2CCN(C/C=C/c3ccccc3)CC2)cc1 | NAADP receptor | antagonist, fluo-3 fluorescence | Lytechinus pictus, egg homogenate | up to 6 µM, with: NAADP 30 to 50 nM | – | NAADP-mediated Ca2+ release | inactive
O=c1cc(-c2ccc(O)c(O)c2)oc2cc(O)cc(O)c12 | bovine serum albumin | methylglyoxal-mediated glycation, fluorescence | – | concentration not given | – | inhibition | 96.3 ± 1.36%
O=S(=O)(NCCNC/C=C/c1ccc(Br)cc1)c1cccc2cnccc12 | PKA | inhibitor | mouse zygotes | 20 µM, injection, hCG, 120 h post, early embryonic development | – | embryos at morula stage | 11.8% and 0% and 15%
CN(C)CCCn1c(=O)c2ccc3c(=O)n(CCCN(C)C)c(=O)c4c5[nH]c6cc(C(=O)O)ccc6[nH]c5c(c1=O)c2c34 | human telomeric G-quadruplex | FRET melting | – | 0.25 µM, K+ 100 mM | – | ΔTm | 4.2 ± 0.3 °C
Oc1ccccc1-c1n[nH]cc1-c1ccnc2ccccc12 | POM1 (Candida albicans) | kinase binding, MIB/MS competition | Candida albicans lysate | 1 µM | relative to: DMSO | log2 fold change | -0.05
Cc1ccc(-n2c(SCC(=O)N/N=C\c3cccc(Oc4ccccc4)c3)nnc2-c2ccc(Cl)cc2)cc1 | NAADP receptor | antagonist, fluo-3 fluorescence | Lytechinus pictus, egg homogenate | up to 6 µM, with: NAADP 30 to 50 nM | – | NAADP-mediated Ca2+ release | inactive
CCCCCCCC(=O)OC[C@H](COP(=O)(O)O[C@@H]1[C@H](O)[C@H](O)[C@@H](OP(=O)(O)O)[C@H](OP(=O)(O)O)[C@H]1O)OC(=O)CCCCCCC | Kv7.2/Kv7.3(EEE) mutant channel | channel open probability, activator, fitted PIP2 binding model | – | model 1 | relative to: channel without bound PIP2 | efficacy factor E2 | 324

Compound | target | test | system | conditions | scale | endpoint | result
C[C@H]1C[C@@H](N2C(=N)N[C@](C)(c3cccc(Nc4ccc(C5CC5)nc4)c3Cl)CC2=O)CCO1 | neuronal sodium channel | ion current, inhibitor, cell-based | – | – | – | IC50 | 2820 nM
O=C(C#Cc1cn(Cc2ccccc2)c(=O)[nH]c1=O)NCc1ccccc1 | MMP-9 | inhibitor, colorimetric | – | 20 µM | – | remaining MMP-9 activity | 104 ± 5%
CC(=O)O[C@H]1C[C@H]2[C@@](C)(CC[C@H]3C(C)(C)CCC[C@@]32C=O)[C@@H]2CC=C(C(C)=O)[C@H](C=O)[C@@]12C | HIF-2α human | HRE-luciferase reporter gene | 786-0 cells with HRE-luciferase reporter | 100 µM, active cut-off 100 µM | – | activity class | active
C=CC[C@@H]1/C=C(\C)C[C@H](C)C[C@H](OC)[C@H]2O[C@@](O)(C(=O)C(=O)N3CCCC[C@H]3C(=O)O[C@H](/C(C)=C/[C@@H]3CC[C@@H](O)[C@H](OC)C3)[C@H](C)[C@@H](O)CC1=O)[C@H](C)C[C@@H]2OC | sodium-chloride cotransporter NCC | response to hydrochlorothiazide | Wistar Kyoto rats, male | ip, 0.5 mg/kg/day, day 20, 6 h excretion, with: hydrochlorothiazide 25 mg/kg ip | – | natriuretic response | decreased
O=C(CO)CO | SAR11_0271 Candidatus Pelagibacter sp. | differential scanning fluorimetry | – | concentration not given | higher = stronger binding | ΔTm | 8.32 °C
COc1ccc(S(=O)(=O)N2CCN([C@H](C)C(=O)Nc3ccccc3-c3ccccc3)CC2)cc1 | NAADP receptor | antagonist, fluo-3 fluorescence | Lytechinus pictus, egg homogenate | up to 6 µM, with: NAADP 30 to 50 nM | – | NAADP-mediated Ca2+ release | inactive
O=c1c(O)c(-c2ccc(O)cc2O)oc2cc(O)cc(O)c12 | bovine serum albumin | methylglyoxal-mediated glycation, fluorescence | – | concentration not given | – | inhibition | 93.4 ± 4.6%
CCn1c2ccccc2c2cc(NC(=O)CN3CCN(S(=O)(=O)c4cc(Cl)ccc4Cl)CC3)ccc21 | NAADP receptor | antagonist, fluo-3 fluorescence | Lytechinus pictus, egg homogenate | up to 6 µM, with: NAADP 30 to 50 nM | – | NAADP-mediated Ca2+ release | inactive
COc1ccccc1-c1n[nH]c2nc(N[C@H]3CC[C@H](NS(=O)(=O)CCCOCCOCCNC(=O)OC(C)(C)C)CC3)ncc12 | Leishmania donovani CYC6 (LINJ.32.3520) | resin binding competition | promastigote lysate | 10 µM | relative to: DMSO | log2 SILAC ratio heavy/light | 3.12
Cc1ccc(-c2cc(C(=O)NCC(C)(C)CNC(=O)c3cc(-c4ccc(C)o4)nc4ccccc34)c3ccccc3n2)o1 | NAADP receptor | antagonist, fluo-3 fluorescence | Lytechinus pictus, egg homogenate | up to 6 µM, with: NAADP 30 to 50 nM | – | NAADP-mediated Ca2+ release | inactive
CCCCCN1C[C@H](O)[C@@H](O)[C@H](O)[C@@H]1CO | GBA2 mouse | enzyme activity, inhibitor | cell lysate | with: 4-MU-β-D-glucopyranoside | – | IC50 | 6 nM
NCc1ccccc1 | AOC4 (dog) | substrate turnover, AOC4 oxidation | – | concentration not given, unit not given | relative to: DMSO control | enzyme activity | 22.9 and 24.4 and 26.3 and 26.7 and 22.3 and 23.8 and 24.8 and 24.3
CN(C)CCCNc1cc2c(=O)n(CCCN(C)C)c(=O)c3c4[nH]c5ccccc5[nH]c4c4c(=O)n(CCCN(C)C)c(=O)c1c4c23 | human telomeric G-quadruplex | FRET melting | – | 0.25 µM, K+ 100 mM | – | ΔTm | 0.5 ± 0.7 °C
CC(C)NCC(O)c1ccc(O)c(O)c1 (centres unmarked) | β2 adrenergic receptor E122Q (human) | PRESTO-Tango luciferase | HTLA cells | 1 nM | – | β-arrestin2 recruitment | 106 RLU and 116 RLU and 172 RLU and 130 RLU and 84.7 RLU and 124 RLU
COc1ccc(CNc2c(CO)cnc3c(C4CC4)cc(C#N)cc23)cn1 | PDE4 | inhibitor | – | – | – | IC50 | > 10000 nM
O=C(O)COP(=O)(O)O | SAR11_0271 Candidatus Pelagibacter sp. | differential scanning fluorimetry | – | concentration not given | higher = stronger binding | ΔTm | 4.29 °C
